Measured values collected from several papers.
A part holds a random share of what one study measured. Positions count from the first letter of the parent shown.

Study 1
Target: ABI1, truncated, D143A, DHFR fusion (Arabidopsis thaliana, UniProt P49597)
Method: DHFR PCA, dose-response
Sample: yeast
Setting: Hill fit, mean, not affinity
Added: (+)-ABA, dose series
Reading: lower = more sensitive
Starting sequence: PYL1, truncated, DHFR fusion (Arabidopsis thaliana, UniProt Q8VZS8); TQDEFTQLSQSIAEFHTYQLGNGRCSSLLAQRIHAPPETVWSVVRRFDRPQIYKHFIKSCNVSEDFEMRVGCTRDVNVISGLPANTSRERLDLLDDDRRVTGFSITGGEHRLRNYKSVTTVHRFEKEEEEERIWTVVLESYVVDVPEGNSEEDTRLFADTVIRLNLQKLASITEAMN
Change	ABA EC50
I105M	40.8 µM
A175K	1.78 µM
R132H	1.09 µM
V40T	184 µM
R132F	2.09 µM
T17Q	9.31 µM
L138M	11.4 µM
R98M	6.75 µM
T106D	49.4 µM
L156E	9.83 µM
G21I	2.8 µM
E131C	3.11 µM
L112Y	440 µM
V136F	9.05 µM
S11K	6.71 µM
K58C	18.9 µM
E174G	19.1 µM
S140T	667 µM
A30Y	2.22 µM
M176V	3.68 µM
N22C	3.31 µM
S42M	7.53 µM
V43M	8.22 µM
E147R	4.86 µM

Study 2
Target: CCNB3, cyclin fold, Cln2 fusion (human)
Method: yeast growth competition, sequencing
Sample: yeast
Setting: strong parent motif
Baseline: not given
Reading: higher = stronger binding
Starting sequence: BRCA2 docking peptide (human); PSIKRNLLNEFDR; partner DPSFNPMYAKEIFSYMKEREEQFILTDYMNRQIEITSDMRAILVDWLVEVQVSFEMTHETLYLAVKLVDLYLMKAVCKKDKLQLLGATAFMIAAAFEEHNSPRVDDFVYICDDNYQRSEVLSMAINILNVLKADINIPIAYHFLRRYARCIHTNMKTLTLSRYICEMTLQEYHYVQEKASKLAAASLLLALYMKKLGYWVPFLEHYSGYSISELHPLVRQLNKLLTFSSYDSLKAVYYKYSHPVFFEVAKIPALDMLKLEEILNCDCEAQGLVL
Change	normalised enrichment score
N9M	1.91
R5C	0.412
F11M	0.125
N9L	2.02
K4M	0.751
S2Y	0.957
E10V	0.274
P1M	1.15
R5S	0.0836
I3Q	-0.0885
N6L	-0.224
P1E	1.33
L7V	-0.0864
F11R	0.304
D12F	0.554
P1A	1.14

Study 3
Target: Interferon regulatory factor 7, full length, phosphomimetic (IRF7, Homo sapiens, UniProt Q92985, residues 1-503, S471D/S472D/S475D/S476D/S477D/S483D/S484D/S487D)
Chain of UniProt Q92985 (whole entry, unmodified, looked up): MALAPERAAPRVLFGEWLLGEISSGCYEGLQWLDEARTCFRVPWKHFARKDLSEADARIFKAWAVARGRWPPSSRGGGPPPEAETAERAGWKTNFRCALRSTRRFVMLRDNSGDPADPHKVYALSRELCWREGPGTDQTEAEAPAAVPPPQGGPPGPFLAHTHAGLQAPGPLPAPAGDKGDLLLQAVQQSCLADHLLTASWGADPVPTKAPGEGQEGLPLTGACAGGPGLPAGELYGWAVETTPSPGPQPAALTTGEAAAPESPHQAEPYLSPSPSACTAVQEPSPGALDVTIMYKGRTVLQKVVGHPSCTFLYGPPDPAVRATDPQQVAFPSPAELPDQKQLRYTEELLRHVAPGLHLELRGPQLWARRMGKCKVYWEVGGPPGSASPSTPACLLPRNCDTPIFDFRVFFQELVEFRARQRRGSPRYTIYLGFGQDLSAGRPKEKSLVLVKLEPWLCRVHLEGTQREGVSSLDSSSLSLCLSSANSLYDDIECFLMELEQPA
Method: protein-binding microarray
Molecule type: double-stranded DNA, one strand shown
Sample: in vitro
Concentration: 2200 nM top
Setting: 60-bp whole probe
Added: salmon DNA 0.4 mg/ml
Baseline: random background probes
Reading: higher = stronger binding
Constant ends, left off below: GCCTAGCAC … GTCTTGATTCGCTTGACGCTGCTG
Oligonucleotide	fitted relative affinity [z-score]
GCCGATATCGGGTATCGAGACGTGCTA	0.422
GACGATTTCAGTCTCGAGGCGTGCTAG	0.895
TTAGGTTTCCTTCTCCTTTGGTGCTAG	2.31
AGAGTTCCAGACAGCTCCCTGTGCTAG	0.213
TTAGATTTCAGACTGGATTAGTGCTAG	-0.106
CATGAACTGTTTCTTGAAAAGTGCTAG	0.27
TCAGCTTTTTTTCCGAGACTGTGCTAG	0.621
TCAAGGTTGTTTCTAATACTGTGCTAG	0.553
TTAGGACTGTACACTGGGTTAGTGCTA	-0.163
TCACAGCTATTTTTAGGACTGTGCTAG	0.0305
TCATTTTTACTTCGGGTACTGTGCTAG	2.34
GACAGTATCCTTTTCCTGACGTGCTAG	1.78
TCATGTAACTCCTATCCAACTGTGCTA	1.4
CTCTGCTTGGGTCTGGGTATGTGCTAG	-0.114
TACGAACTGAGTCTCGAGACGTGCTAG	0.0932
TGCTGTGTACATCTCTCTTAGTGCTAG	0.912
GTGTATATACTATATGCATGTGTGCTA	0.831
TTAGGACTGGGACTGGGTCAGTGCTAG	-1.12
TCAATTTTGTTCATCATACTGTGCTAG	0.964
AAGTGTGCCCATCTCTGCTCGTGCTAG	0.574
TCTCTGCTACCCTTTGAAAGTGTGCTA	1.02
TCAAGAATGGGGTTTGCAACTGTGCTA	-0.243
CCCGCCCCGCCCCGCCCGCAGTGCTAG	-0.53
GACGGACTTGGGACTGGGGACGTGCTA	-0.95
TTAGGTTTCGGGTATCGGTTGGTGCTA	6.44

Study 4
Substance: PhoQ, residues 284 288 289 292 302 303 TTCLQL
Method: Sort-seq
Refers to: YFP reporter
Sample: E. coli
Setting: PhoQ-PhoP variant library
Added: 10 µM Mg2+
Baseline: high Mg2+ state
Reading: higher = stronger signaling
target	fold induction
PhoP, residues 12 14 15 18 19 QYFSL (Escherichia coli, UniProt P23836)	13.2
PhoP, residues 12 14 15 18 19 NYFRM (Escherichia coli, UniProt P23836)	10.6
PhoP, residues 12 14 15 18 19 TQALL (Escherichia coli, UniProt P23836)	2.92

Study 5
Target: RNA binding protein fox-1 homolog 2, RRM domain, GST-SBP tag (RBFOX2, Homo sapiens, UniProt O43251-10, residues 100-194)
Method: RNA Bind-n-Seq
Molecule type: RNA
Sample: in vitro
Concentration: 365 nM
Setting: natural RNA segment, single round, ends assumed
Baseline: no-protein control
Reading: higher = stronger binding
Constant ends, left off below: GGGAGUUCUACAGUCCGACGAUC … UGGAAUUCUCGGGUGCCAA
Construct (chain): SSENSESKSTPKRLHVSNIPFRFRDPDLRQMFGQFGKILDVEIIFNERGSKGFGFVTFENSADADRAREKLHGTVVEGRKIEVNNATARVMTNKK
Oligonucleotide	RBNS enrichment (R)
CUGGCCAUUUGAAAGCCUAGUAUUUAUUUGUAUGUCAAUAUUUGCCCAGUUGAUGUCCUAUGUAGAGUUAAUUGUAAAACUUGAAGAAUUUCAGACAUAACCAACUUAUA	0.45
CCCCGUUGGUGAUGAAAGGCCUGAAUAUCUCCCAUCCCAGCUGGCCCCACCUCAGCCCCAGCCCUCCCACCAUGAAAGUGGAACCUGUGUGGGCUUCCUCUCUGCCCCAG	0.302
UUUUGUAUCUAGGAGUCCAUUUGAGUUCUUUCCAAUAUUUCCAUAUCGUUCAUAAAUGUGUCUGGGGGCUUCCUUGUUUGGAAAAUAUGGAUAUCGCUUUGUUUUCCUUU	0.921
AGAAAAUAUAUACAUUUAUUUAGCCAAAAGGAAUGAAGAAAGCAUUUACACAUUUGUGUUUUAUCUGAUUCUGUUCAGUUCUCAAGGAACUUUCACAAUGCUUUCCUAGG	0.627
CAUUCUUGGCCUUCCUAAUCACUCCCCACUCCUCUAGUCACAGUGUGGCUGAGGACUCAAGGCUGUGAAGACCAGGAGUUCCUGCUCUUGACAUUAUUCCUCCCACUUUG	0.227
UCACUGUAUAGACUGUUAAAUUUGAUUUCUUAUUACCUAUUGUUAAAUAAACUGUGUGAGACAGACACCCUGACUUUGUUUCACUUGAUAACACAUCUUUGUCUUGGAGU	1.01
GGAUAUCGAAAUGAAGGAGCUGCCUUAAGCACUUUAGAAAAAGAAUUUUUUUACAAUUCAUUUUGACUCUCAUGGCUGACCAUGUCAUUAUGUCUUUAAAUUUUGGUAAA	0.4
UCUAAUACCUCACUCAUUGACACGUGAGCAACACAAAGACAUUCACAAGGGCCGGCAUCACCAGACCAGCUGAGGACAACUCAGACUGACAGUUGGACAAACAUUGCGAC	0.44
UUUAAAACUGGGUAGAAAUGUAAUAUACAUUGGACCACUUUUUUAAGCCUUAAUGAACAGUGUAUAUACAUCUGUGUAUGCACACUCCACCCCAGAGUGUUUUCAGUGUG	0.39
UGAUAUUUAUGUACAUAUUAAGAUAAAUGUCAUGUGUAAGAUAACUGAUAAAUAUUGGAACUUUGCUAGAACAAGACCCUGUAGUAAUAGUAAUAAUAGUUGAAGUUUGG	0.601
UUGAUCACAGUUUAUAAGAAAGAACAAAUCAAGAUUGGCAAUCCUUGCCGAUCUUUUAGAAAUACCUUUUCUGGAGAAAAAAAAAUCCACAUGAAGUGCAAUAAGCUUAU	0.403
AUUCAUAAAAGUUUGCAUGUGUUUUUAUUCUCUAGAUCUGUUACCAAUAUAGUUUUCUAACUCCUGUUUGGGGAGCAAGUGUUAAUAAUAACUUAUUCCUAAAGCUUGGU	42.2

Excerpt of the above (study 2):
Change	normalised enrichment score
R5C	0.412
F11M	0.125
N9L	2.02
K4M	0.751
S2Y	0.957
E10V	0.274
P1M	1.15
R5S	0.0836
I3Q	-0.0885
N6L	-0.224
P1E	1.33
